# Results collected from several papers.
# A part holds a random share of what one study measured. Substitutions count along the parent as printed.

# Block 1
# Target: RING finger protein unkempt homolog, zinc fingers 1-6, SBP tag (UNK, Homo sapiens, UniProt Q9C0B0, residues 30-357)
# Sequence of UniProt Q9C0B0 (30-357, looked up): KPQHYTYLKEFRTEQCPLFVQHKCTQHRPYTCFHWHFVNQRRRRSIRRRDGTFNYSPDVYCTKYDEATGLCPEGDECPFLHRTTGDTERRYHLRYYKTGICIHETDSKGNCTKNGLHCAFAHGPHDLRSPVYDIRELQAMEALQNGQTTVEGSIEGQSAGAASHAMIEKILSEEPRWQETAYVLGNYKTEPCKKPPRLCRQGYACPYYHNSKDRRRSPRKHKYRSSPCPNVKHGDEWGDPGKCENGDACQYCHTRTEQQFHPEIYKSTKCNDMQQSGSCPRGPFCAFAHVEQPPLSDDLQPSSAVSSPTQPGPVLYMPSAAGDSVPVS
# Technique: RNA Bind-n-Seq
# Form: RNA
# Sample: in vitro
# Concentration: 100 nM
# Setting: RNA with constant flanks, vertebrate orthologous sites, ends assumed
# Baseline: input RNA pool
# Direction: higher = stronger binding
# All sequences stand within: GGGAGUUCUACAGUCCGACGAUC … CAACAGAGGAUUGAGCAUCA
Sequence,bound/input enrichment
GUCAUCACUGCUUCUUACCACCUCAAUGAGGUGACGCCUCCCACAACACUUUGUUGGUCCUAGGCUAACCUGAUAAAUCUCUCCACAUUUCAUUUUCUUCUUCUACCCUCCCAUUCACCU,1.21 ratio
CGGGCCCUACAUAUAAAAUGCCUAUCAAAUGUUGACUGUGAACCGAAACUUCACUUACAUAGGUCUGUUAAGUUACACAGAAGUUUCCUUAAGCCUGAGCCGCGCUGCCCUGUCUGAAGU,0.294 ratio
UUCAAGUUCAUCUCUCAUAUGUCAAAAAUGGCUUCAAAUUUUUCAAUGACUAGUUUUAAUUAGCUCUGCCCUCGUGAAGUACAUUUAUAAUUCACCUCAAACAGAUUUGCCUGAGUUACU,1.08 ratio
UAUUGUAUGUAGAGAAUAAUUUUCAUUGGCCCCUAUUGUGAAAUUCCCUAGCAGUUUAUUUAGAAUCUUAAUUUCUCUAAUUCAGGCUCACUGUAUUAGUCAUUUUUAGCUCAUAAUUAA,1.28 ratio
UGAAAGUUACAGACAAGAGCCUGAAAGUAGAAAUACAGGAUCCUGGUUAUCGUCAUCUCUAAGAAAUAGAUGUACACCUCUGUUCUCCAGAAGAAGGCGAGAAGGAAGAGAUGAAUCUGC,0.281 ratio
GCAAAUCCAAUCACUGUGAUAUUUAAAAUAUGCACAGUCCUAAUUCUUUCUCAAUGAUCCUAGUAUUUUCCUAGCUGUAUCUUUGUAUCUCAUACUGUUAUUUAUCAGUUUUGUUCCCCU,0.935 ratio
GCAAUGAAAAAGCAGCCCUUCUCCCAGCCCCCUUUUCACUAGGAGACACAAACAUUACAAUAGAAGAGCAAUUAAACUCAAUAAAUUUAUCUUUUCAGGAUGAUCCAGAUUCCAGUACCA,2.43 ratio
AAAUUUAUUUCAUGCCCUGGACUCCCUAUCGUACCGAUACUUUAAUAGAAUAUGCUUCUUUAGAAGAUUUCCAAAAUAGUCGCCAAACAACAACAUAUAAACUUCCAAAUCGAGUAGAUG,1.67 ratio
UUGCCUACAAUAAGGAAACCUACAGGAAGUUUUUUAUUUUUCAUUUUCCCCUUAGGCAUAGUUAGUCUUUUUCUCCCCAGGCAGAUCAUUCUGAGUGUGCAAGUGUGUGUGCACAUGUUA,0.844 ratio
UAUUGAAUAGUAUUAAACAUUUUUGUCUUCCUUUACCUUUUAUCCCCUUUACCUAAUACUUAGUCUACUUUUUUAAAUUUCAGACUUCACUGCUCUUUGAAUUGAUAAUUCCAGUUUUCA,4.41 ratio
CCAGUCUUCCACUUAGGGUCAGCCUCAGAUCUAUAGGAUUUAUGACAAAUGUAUUAUAUCUAGUUGAGUUGAGUUGAGUUUAAUAUUUUUUUAUUAGCUUGUAAAUAAAGUUGGCAUCUU,1.41 ratio

# Block 2
# Target: Sal-like protein 4, full length isoform B (SALL4, Homo sapiens, UniProt Q9UJQ4-2, residues 1-616)
# Technique: universal PBM
# Form: double-stranded DNA, one strand shown
# Sample: in vitro
# Concentration: not given
# Setting: 8-mer, flanks averaged, mean of replicates
# Direction: higher = stronger binding
Sequence,E-score
CCCAATCG,-0.181
AAGCCCTG,-0.242
AGATGAAC,-0.0309
GAATCGGA,0.0182
CTTTTCAC,0.0258
CTTCCGTA,-0.00268
TGCATAAA,0.305
GGGATTCA,-0.204
TGGCAACA,0.0887
GCTACCCC,-0.178
ACCAGCTG,-0.283
GGACCGGA,-0.364
ACTCAAAA,0.138
CTGCAGGA,-0.00707
CATTACGC,-0.00679
AAGACAGT,-0.0743
AAAGAGCC,-0.224
AACCCAGG,-0.355
AAGCGTCC,-0.126

# Block 3
# Target: JUND, bZIP domain (human)
# Technique: DHFR protein complementation
# Sample: yeast
# Setting: single substitutions, most at no-binding floor
# Baseline: wild-type JUN-FOS pair
# Direction: higher = stronger binding
# Starting sequence: JUN, bZIP domain (human); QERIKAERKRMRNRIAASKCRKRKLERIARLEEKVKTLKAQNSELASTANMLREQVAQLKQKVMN; partner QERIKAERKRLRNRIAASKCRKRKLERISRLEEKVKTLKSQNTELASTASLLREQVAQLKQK
Change,binding fitness [natural log]
E54V,-1.07
E44R,-0.981
R30K,-0.72
S47C,-0.685
L45M,-1.13
K39T,-0.378
T37R,-0.675
A46L,-0.548
A40L,-0.866
S43N,-0.65
A40W,-1.11
K34V,-0.578
A29M,-1.07
K34L,-0.265
A40F,-0.992
M51F,-0.77
T37N,-0.596
Q55R,-1.12
A40N,-0.895
E54K,-0.922

# Block 4
# Target: ABI1, truncated, D143A, DHFR fusion (Arabidopsis thaliana)
# Technique: DHFR PCA, deep sequencing
# Sample: yeast
# Setting: methotrexate growth selection, single substitutions
# With: (+)-ABA 17 µM
# Baseline: wild-type fitted maximum
# Direction: higher = stronger binding
# Starting sequence: PYL1, truncated, DHFR fusion (Arabidopsis thaliana); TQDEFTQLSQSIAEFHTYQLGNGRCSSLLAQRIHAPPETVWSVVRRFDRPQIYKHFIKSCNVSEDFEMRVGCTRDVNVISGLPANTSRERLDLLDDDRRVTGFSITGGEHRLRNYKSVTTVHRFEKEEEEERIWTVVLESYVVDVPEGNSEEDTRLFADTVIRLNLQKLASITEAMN; partner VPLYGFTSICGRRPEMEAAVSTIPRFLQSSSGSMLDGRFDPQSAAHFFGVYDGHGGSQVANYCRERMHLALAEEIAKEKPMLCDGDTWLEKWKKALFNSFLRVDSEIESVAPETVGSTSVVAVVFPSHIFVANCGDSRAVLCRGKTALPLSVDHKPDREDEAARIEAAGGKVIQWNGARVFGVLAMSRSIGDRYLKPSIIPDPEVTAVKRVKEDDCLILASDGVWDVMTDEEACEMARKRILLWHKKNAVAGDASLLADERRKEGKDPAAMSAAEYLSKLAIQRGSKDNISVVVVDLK
Change,relative binding score [%]
N177L,79.8
R90P,-3.97
R90S,38
I172S,22.1
D153M,-0.188
V76G,-3.72
V76W,-19
E89Q,-12.8
R69I,82.5
S42V,24.9
D97H,86
R74E,-2.46
N22P,89.5
V76C,68.6
S80N,29.3
K126A,96.1
A84C,38.5
V62W,15.8
S11T,81.8

# Block 5
# Target: Histone acetyltransferase KAT6A, both winged helices, GST fusion (KAT6A, Homo sapiens, UniProt Q92794, residues 1-181)
# Technique: protein binding microarray
# Form: double-stranded DNA, one strand shown
# Sample: in vitro
# Concentration: not given
# Setting: 8-mer, flanks averaged, mean of 2 arrays, mostly near background
# Baseline: not given
# Direction: higher = stronger binding
# Target sequence (chain): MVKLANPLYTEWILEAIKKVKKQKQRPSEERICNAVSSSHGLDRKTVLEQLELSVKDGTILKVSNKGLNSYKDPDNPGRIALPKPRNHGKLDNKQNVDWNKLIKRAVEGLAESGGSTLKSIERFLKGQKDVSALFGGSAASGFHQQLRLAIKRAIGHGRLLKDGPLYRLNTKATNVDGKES
Sequence,E-score
ACTCAGCA,-0.106
CTGGAAGA,-0.0871
AGCTGCGA,0.00843
ACGCTCCG,0.248
GCGACCGC,0.316
ACTGCGCG,0.321
CCAACTGA,-0.182
AAGTATCG,-0.0437
ACGGGTAG,0.201
ATAACACG,0.17
ATCGCGGA,0.132
ATAGTGAG,-0.143
CCACTACG,-0.0679
AGGACCCT,-0.151
CCCCGGCA,0.147
ATTTGTAG,-0.144
GGCAGCTA,-0.0932
CTAGCCAG,-0.28
AGACTATG,-0.0957
TCGACCGA,0.129
CCGGCGAG,0.203
AACGGGAA,0.309
ATATGTAG,-0.149
CGACTTAG,-0.126
GTCCGGCA,0.167

# Block 6
# Target: CCNA2, cyclin fold, Cln2 fusion (human)
# Technique: yeast growth competition, sequencing
# Sample: yeast
# Setting: strong parent motif
# Baseline: not given
# Direction: higher = stronger binding
# Starting sequence: BRCA2 docking peptide (human); CKKRRALDFLSRL
Change,normalised enrichment score
L13A,2.77
R5A L7A,1.97
F9L,1.88
R5K,1.55
L7A,1.67
R12A,3.38
L10A,1.83
R5A,2.67
D8A,1.17

# Mixed results
Molecule,target,assay,system,setting,scale,endpoint,result
"PhoQ, residues 284 288 289 292 302 303 TNSAEL","PhoP, residues 12 14 15 18 19 TTLRV (Escherichia coli, UniProt P23836)","Sort-seq, refers to: YFP reporter",E. coli,"PhoQ-PhoP variant library, with: 10 µM Mg2+","baseline: high Mg2+ state, higher = stronger signaling",fold induction,7.5

# A few entries again (block 5):
Sequence,E-score
AAGTATCG,-0.0437
ACGGGTAG,0.201
ATAACACG,0.17
ATCGCGGA,0.132
ATAGTGAG,-0.143
CCACTACG,-0.0679
AGGACCCT,-0.151
CCCCGGCA,0.147
ATTTGTAG,-0.144
GGCAGCTA,-0.0932
CTAGCCAG,-0.28
AGACTATG,-0.0957
TCGACCGA,0.129
CCGGCGAG,0.203
AACGGGAA,0.309
